# Measured values from different studies.
# ± gives the spread as reported.
# ampC: Beta-lactamase (ampC, Escherichia coli K-12, UniProt P00811)
# Sequence of UniProt P00811 (whole entry, looked up): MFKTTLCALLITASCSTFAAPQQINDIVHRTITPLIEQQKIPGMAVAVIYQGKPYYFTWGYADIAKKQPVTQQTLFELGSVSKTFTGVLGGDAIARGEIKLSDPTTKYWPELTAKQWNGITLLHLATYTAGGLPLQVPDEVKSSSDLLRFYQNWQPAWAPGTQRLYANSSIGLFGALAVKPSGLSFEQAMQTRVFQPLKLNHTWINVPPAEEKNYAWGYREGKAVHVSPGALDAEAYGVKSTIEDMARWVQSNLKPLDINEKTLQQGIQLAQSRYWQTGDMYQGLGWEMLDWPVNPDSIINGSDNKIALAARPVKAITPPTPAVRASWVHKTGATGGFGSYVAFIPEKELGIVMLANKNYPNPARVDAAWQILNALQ
# HLA class I histocompatibility antigen, A alpha chain allele A*02:01: HLA class I histocompatibility antigen, A alpha chain, allele A*02:01 (Homo sapiens, UniProt P04439)
# HLA class I histocompatibility antigen, A alpha chain allele A*24:02: HLA class I histocompatibility antigen, A alpha chain, allele A*24:02 (Homo sapiens, UniProt P04439)
# Sequence of UniProt P03023 (whole entry, unmodified, looked up): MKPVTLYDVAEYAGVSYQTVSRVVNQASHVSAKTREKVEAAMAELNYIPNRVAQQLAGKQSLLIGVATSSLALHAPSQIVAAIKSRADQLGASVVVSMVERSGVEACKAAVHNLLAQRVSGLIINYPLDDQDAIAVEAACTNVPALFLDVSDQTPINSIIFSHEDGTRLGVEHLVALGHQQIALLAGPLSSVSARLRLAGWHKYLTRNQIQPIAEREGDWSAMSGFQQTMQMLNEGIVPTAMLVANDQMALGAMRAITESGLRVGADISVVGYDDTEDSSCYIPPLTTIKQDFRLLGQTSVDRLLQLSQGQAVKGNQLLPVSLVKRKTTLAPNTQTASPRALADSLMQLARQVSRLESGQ
# Sequence of UniProt P77488 (whole entry, unmodified, looked up): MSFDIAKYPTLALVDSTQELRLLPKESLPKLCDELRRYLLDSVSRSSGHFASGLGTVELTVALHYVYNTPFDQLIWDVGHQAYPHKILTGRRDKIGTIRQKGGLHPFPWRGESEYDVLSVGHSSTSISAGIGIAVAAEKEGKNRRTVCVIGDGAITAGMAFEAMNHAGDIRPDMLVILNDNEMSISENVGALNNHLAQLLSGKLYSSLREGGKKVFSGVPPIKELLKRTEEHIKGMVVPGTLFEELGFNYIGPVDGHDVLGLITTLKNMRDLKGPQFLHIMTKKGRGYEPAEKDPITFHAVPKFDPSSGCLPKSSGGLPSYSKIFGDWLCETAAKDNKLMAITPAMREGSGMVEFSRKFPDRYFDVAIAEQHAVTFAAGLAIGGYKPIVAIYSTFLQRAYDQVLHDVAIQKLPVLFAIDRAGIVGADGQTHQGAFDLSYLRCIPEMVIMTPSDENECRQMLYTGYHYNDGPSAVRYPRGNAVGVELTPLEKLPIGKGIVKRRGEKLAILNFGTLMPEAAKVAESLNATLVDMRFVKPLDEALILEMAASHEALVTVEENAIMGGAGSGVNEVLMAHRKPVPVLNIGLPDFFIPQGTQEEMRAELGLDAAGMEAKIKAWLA
# Sequence of UniProt P43378 (whole entry, looked up): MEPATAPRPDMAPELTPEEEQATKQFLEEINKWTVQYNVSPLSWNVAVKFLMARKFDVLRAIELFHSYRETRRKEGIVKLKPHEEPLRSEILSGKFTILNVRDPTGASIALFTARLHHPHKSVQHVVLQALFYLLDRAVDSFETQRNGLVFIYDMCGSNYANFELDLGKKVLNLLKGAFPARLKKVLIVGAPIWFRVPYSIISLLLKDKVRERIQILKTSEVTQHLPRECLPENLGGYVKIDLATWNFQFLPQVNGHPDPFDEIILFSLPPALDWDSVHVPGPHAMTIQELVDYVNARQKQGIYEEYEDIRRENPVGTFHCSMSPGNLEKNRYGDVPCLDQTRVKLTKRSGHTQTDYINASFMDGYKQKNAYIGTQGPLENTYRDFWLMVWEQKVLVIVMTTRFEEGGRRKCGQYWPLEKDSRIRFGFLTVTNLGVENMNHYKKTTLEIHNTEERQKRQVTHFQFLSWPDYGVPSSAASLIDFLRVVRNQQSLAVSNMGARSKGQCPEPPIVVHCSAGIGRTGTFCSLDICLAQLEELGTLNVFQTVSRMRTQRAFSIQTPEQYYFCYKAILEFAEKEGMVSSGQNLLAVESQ
# Sequence of UniProt Q8N5H7 (whole entry, looked up): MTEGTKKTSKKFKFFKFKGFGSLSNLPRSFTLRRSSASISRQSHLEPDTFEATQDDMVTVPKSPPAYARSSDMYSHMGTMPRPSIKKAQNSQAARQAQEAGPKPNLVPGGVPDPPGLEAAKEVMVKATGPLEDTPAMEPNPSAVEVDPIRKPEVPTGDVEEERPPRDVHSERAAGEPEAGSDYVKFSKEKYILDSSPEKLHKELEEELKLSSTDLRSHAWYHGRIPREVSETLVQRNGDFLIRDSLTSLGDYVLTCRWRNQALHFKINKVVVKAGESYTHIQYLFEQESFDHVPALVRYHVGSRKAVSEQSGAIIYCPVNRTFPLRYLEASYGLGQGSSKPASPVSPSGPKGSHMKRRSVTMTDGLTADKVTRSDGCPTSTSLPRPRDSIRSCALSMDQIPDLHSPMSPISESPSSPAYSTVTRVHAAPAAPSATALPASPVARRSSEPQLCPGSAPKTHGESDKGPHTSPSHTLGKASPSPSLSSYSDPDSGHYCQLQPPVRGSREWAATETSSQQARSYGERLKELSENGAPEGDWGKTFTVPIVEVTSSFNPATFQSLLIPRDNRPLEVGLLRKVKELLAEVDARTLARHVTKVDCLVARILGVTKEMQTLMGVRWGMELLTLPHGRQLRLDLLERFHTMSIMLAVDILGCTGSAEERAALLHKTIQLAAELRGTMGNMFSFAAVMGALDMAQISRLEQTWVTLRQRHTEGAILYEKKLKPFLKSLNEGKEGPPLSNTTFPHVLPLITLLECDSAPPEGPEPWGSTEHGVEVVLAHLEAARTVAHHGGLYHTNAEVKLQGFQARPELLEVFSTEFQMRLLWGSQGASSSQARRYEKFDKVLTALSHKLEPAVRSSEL
# Sequence of UniProt P08684 (whole entry, looked up): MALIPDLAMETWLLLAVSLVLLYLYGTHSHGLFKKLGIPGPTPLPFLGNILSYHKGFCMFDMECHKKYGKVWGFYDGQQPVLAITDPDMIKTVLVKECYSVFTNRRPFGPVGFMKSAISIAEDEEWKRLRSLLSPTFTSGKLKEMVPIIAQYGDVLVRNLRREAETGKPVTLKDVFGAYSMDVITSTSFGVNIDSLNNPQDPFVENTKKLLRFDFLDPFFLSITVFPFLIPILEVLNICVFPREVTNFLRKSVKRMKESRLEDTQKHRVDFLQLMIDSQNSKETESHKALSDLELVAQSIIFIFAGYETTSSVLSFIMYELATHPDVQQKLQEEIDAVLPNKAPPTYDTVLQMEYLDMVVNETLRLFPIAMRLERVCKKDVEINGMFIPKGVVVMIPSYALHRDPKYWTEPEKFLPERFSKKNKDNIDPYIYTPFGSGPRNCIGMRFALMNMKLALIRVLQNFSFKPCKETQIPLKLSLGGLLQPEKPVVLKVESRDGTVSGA
# Sequence of UniProt P51451 (whole entry, looked up): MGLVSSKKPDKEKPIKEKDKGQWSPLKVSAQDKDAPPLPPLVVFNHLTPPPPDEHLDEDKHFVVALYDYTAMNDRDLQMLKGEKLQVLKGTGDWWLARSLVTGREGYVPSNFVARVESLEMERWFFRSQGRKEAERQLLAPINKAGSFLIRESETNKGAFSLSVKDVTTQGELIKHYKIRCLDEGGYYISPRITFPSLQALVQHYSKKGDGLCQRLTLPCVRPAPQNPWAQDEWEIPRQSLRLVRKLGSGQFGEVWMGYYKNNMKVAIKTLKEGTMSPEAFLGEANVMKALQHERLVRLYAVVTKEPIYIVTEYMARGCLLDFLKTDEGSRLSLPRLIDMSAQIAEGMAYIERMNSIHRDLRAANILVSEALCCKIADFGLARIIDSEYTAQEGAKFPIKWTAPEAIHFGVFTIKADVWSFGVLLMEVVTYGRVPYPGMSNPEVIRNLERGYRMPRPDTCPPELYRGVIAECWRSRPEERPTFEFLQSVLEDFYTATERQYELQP
Compound,target,assay,setting,measurement,result
COC(=O)C(CC1CC1)NS(=O)(=O)c1cccc(Cl)c1O (stereo not drawn),ampC,,,Ki,133 µM
CC[C@H](C)[C@H](NC(=O)[C@H](CC(=O)O)NC(=O)[C@H](C)NC(=O)[C@H](Cc1ccc(O)cc1)NC(=O)[C@H](CCCCN)NC(=O)c1ccc2c(c1)C(=O)OC21c2ccc(N(C)C)cc2Oc2cc(N(C)C)ccc21)C(=O)N[C@@H](CCC(=O)O)C(=O)N[C@@H](CO)C(=O)N[C@@H](CO)C(=O)N[C@@H](CC(N)=O)C(=O)N[C@@H](Cc1ccc(OP(=O)(O)O)cc1)C(=O)N[C@@H](CCSC)C(=O)N[C@@H](C)C(=O)N1CCC[C@H]1C(=O)N[C@@H](Cc1ccc(O)cc1)C(=O)N[C@@H](CC(=O)O)C(=O)N[C@@H](CC(N)=O)C(=O)N[C@@H](Cc1ccc(O)cc1)C(=O)N[C@@H](CC(=O)O)C(=O)O,"Tyrosine-protein kinase Blk, SH2 domain (BLK, Homo sapiens, UniProt P51451)",binding,,Kd,1010 nM
CSCC[C@H](NC(=O)[C@@H](N)CCCNC(=N)N)C(=O)N[C@@H](Cc1c[nH]c2ccccc12)C(=O)N[C@@H](CO)C(=O)N[C@@H](CCCCN)C(=O)N1CCC[C@H]1C(=O)N[C@@H](CC(C)C)C(=O)N[C@@H](CCC(N)=O)C(=O)N[C@@H](Cc1ccccc1)C(=O)O,"HLA class I histocompatibility antigen, A alpha chain allele A*02:01",binding,,IC50,1.81 µM
C[C@H]1O[C@@H](Oc2ccccc2[N+](=O)[O-])[C@H](O)[C@@H](O)[C@H]1O,"lacI (Escherichia coli, UniProt P03023, D149A/N125A)","operator DNA binding, nitrocellulose filter binding",with: O1 operator DNA,EC50,> 100 µM
CSCC[C@H](NC(=O)[C@H](CO)NC(=O)[C@H](CC(C)C)NC(=O)[C@H](CO)NC(=O)[C@H](Cc1c[nH]cn1)NC(=O)CNC(=O)[C@H](Cc1ccc(O)cc1)NC(=O)[C@H](CC(C)C)NC(=O)[C@@H](N)CCCNC(=N)N)C(=O)O,"HLA class I histocompatibility antigen, A alpha chain allele A*24:02",binding,,IC50,34.1 µM
CC[C@H](C)[C@H](NC(=O)c1ccc2c(c1)C(=O)OC21c2ccc(N(C)C)cc2Oc2cc(N(C)C)ccc21)C(=O)N[C@@H](CCC(=O)O)C(=O)N[C@@H](CO)C(=O)N[C@@H](CO)C(=O)N[C@@H](CC(N)=O)C(=O)N[C@@H](Cc1ccc(O)cc1)C(=O)N[C@@H](CCSC)C(=O)N[C@@H](C)C(=O)N1CCC[C@H]1C(=O)N[C@@H](Cc1ccc(OP(=O)(O)O)cc1)C(=O)N[C@@H](CC(=O)O)C(=O)N[C@@H](CC(N)=O)C(=O)N[C@@H](Cc1ccc(O)cc1)C(=O)N[C@H](C(=O)N1CCC[C@H]1C(=O)N[C@@H](CO)C(=O)N[C@@H](C)C(=O)N[C@@H](CC(=O)O)C(=O)O)C(C)C,"SH2 domain-containing protein 3C, SH2 domain (SH2D3C, Homo sapiens, UniProt Q8N5H7)",binding,,Kd,1610 nM
COC(=O)c1csc(CNS(=O)(=O)c2cc(Cl)cc(Cl)c2O)n1,ampC,,,Ki,69.2 µM
C[C@H]1CN(c2n[nH]c3nc(N[C@H]4CC[C@H](NS(=O)(=O)CCC(F)(F)F)CC4)ncc23)CCO1,"Cytochrome P450 3A4 (CYP3A4, Homo sapiens, UniProt P08684)","enzyme activity, inhibitor","with: atorvastatin, nifedipine, midazolam",IC50,> 100 µM
CC(C)C[C@H](NC(=O)[C@H](CCC(=O)O)NC(=O)[C@H](CC(C)C)NC(=O)[C@@H]1CCCN1C(=O)[C@H](CCCCN)NC(=O)[C@H](CO)NC(=O)[C@H](Cc1ccc(O)cc1)NC(=O)[C@@H](NC(=O)[C@@H](N)Cc1ccc(O)cc1)[C@@H](C)O)C(=O)O,"HLA class I histocompatibility antigen, A alpha chain allele A*24:02",binding,,IC50,8.39 µM
CC(C)Oc1ccc(NS(=O)(=O)c2cc(Cl)cc(Cl)c2O)cc1C#N,ampC,,,Ki,40.4 µM
CSCC[C@H](NC(=O)[C@@H](N)Cc1ccc(O)cc1)C(=O)N[C@@H](Cc1ccc(O)cc1)C(=O)N[C@H](C(=O)N[C@@H](CCCCN)C(=O)N[C@@H](Cc1ccccc1)C(=O)N[C@@H](Cc1c[nH]cn1)C(=O)N[C@H](C(=O)N[C@@H](Cc1ccc(O)cc1)C(=O)O)[C@@H](C)O)[C@@H](C)O,"HLA class I histocompatibility antigen, A alpha chain allele A*24:02",binding,,IC50,5.21 µM
OC[C@H]1O[C@@H](OCCc2ccccc2)[C@H](O)[C@@H](O)[C@H]1O,"lacI (Escherichia coli, UniProt P03023, N125A)","operator DNA release, nitrocellulose filter binding",with: O1 operator DNA,EC50,390 ± 15 µM
CC(C)C[C@H](NC(=O)[C@@H](N)Cc1ccccc1)C(=O)N[C@@H](Cc1ccccc1)C(=O)N1CCC[C@H]1C(=O)N[C@@H](Cc1c[nH]cn1)C(=O)N[C@@H](CCC(N)=O)C(=O)N[C@@H](Cc1ccc(O)cc1)C(=O)N[C@@H](CO)C(=O)N[C@@H](Cc1ccccc1)C(=O)O,"HLA class I histocompatibility antigen, A alpha chain allele A*24:02",binding,,IC50,0.378 µM
CO[C@@H]1[C@@H](OC(N)=O)[C@@H](O)[C@H](Oc2ccc3c(O)c(NC(=O)c4ccc(O)c(CC=C(C)C)c4)c(=O)oc3c2C)OC1(C)C,"Multidrug resistance operon repressor (mexR, Pseudomonas aeruginosa, UniProt P52003, C62A/M61A/Q60A)",,,Kd,527000 nM
CCCCOP(=O)(O)C(C)=O,"dxs (Escherichia coli, UniProt P77488, R99A)",inhibitor,,Ki,30 ± 6 µM
CC[C@H](C)[C@H](NC(=O)[C@@H](N)CCCCN)C(=O)N[C@@H](Cc1ccccc1)C(=O)N1CCC[C@H]1C(=O)N[C@@H](CCCCN)C(=O)N1CCC[C@H]1C(=O)N[C@@H](CC(C)C)C(=O)N[C@@H](Cc1ccc(O)cc1)C(=O)N[C@@H](CCSC)C(=O)O,"HLA class I histocompatibility antigen, A alpha chain allele A*02:01",binding,,IC50,0.775 µM
COc1cc(Nc2ncc(F)c(Nc3ccc4c(n3)NC(=O)C(C)(C)O4)n2)cc(OC)c1OC,"PTPN9 (Homo sapiens, UniProt P43378)",,MEG2,IC50,> 10 µM
Cn1ccnc1Sc1ccc(NS(=O)(=O)c2cccc(Cl)c2O)cc1,ampC,,,Ki,189 µM
